Published values from different studies.
Numbered parts are unrelated; each lists some results of a single study.

Sample 1 — technique: universal PBM; molecule type: double-stranded DNA, one strand shown; matrix: in vitro; concentration: 600 nM; reading: higher = stronger binding; measurement: E-score
Target: Sal-like protein 4, full length isoform A (SALL4, Homo sapiens, UniProt Q9UJQ4, residues 1-1053)
Chain of UniProt Q9UJQ4 (whole entry, looked up): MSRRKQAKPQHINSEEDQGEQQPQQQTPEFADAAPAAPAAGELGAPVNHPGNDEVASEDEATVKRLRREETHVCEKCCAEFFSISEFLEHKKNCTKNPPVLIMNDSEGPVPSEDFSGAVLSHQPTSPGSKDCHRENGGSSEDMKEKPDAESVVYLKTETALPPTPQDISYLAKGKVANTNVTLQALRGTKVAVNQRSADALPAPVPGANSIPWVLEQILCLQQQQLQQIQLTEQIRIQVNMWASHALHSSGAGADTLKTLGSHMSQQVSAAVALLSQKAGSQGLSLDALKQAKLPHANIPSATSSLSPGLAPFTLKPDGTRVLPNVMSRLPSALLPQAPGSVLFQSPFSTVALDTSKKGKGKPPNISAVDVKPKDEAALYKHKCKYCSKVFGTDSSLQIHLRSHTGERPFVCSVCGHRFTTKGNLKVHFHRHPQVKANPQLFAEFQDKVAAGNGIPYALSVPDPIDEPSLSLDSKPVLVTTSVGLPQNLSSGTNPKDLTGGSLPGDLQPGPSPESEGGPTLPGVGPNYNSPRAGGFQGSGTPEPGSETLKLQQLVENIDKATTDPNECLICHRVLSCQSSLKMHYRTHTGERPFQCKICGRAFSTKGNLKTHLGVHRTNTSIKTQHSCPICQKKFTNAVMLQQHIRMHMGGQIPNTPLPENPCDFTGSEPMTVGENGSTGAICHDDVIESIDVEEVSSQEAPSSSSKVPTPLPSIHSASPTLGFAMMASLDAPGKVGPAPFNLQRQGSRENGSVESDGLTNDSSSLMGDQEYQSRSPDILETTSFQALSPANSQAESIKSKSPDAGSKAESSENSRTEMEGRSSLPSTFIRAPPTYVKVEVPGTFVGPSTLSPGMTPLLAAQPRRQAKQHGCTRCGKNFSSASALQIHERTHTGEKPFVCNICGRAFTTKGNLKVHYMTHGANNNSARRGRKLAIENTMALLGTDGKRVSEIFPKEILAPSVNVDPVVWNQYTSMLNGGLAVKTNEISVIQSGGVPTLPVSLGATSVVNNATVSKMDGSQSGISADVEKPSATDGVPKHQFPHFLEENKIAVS
Setting: 8-mer, flanks averaged, mean of replicates
AGGGTGGC: -0.201
CCGAGTCG: -0.335
CAACTTTA: 0.219
ACCTGCAA: -0.12
CTATAAAA: 0.297
AAGTGCCA: -0.0402
CCACGACG: -0.231
CGTGACAC: -0.0808
ACTCGGCA: -0.206
AAAAATCC: 0.195
AGGGCGGA: -0.251
ATTAGGGA: 0.157
GAGAGTTA: 0.185
CCTGCTCG: -0.245
GACAATCA: 0.0647
GTTATCGA: 0.128
ACTGATAC: -0.0549
ATTAGTAG: 0.304
AAGCGGTA: -0.00147
CTATGGTA: 0.128

Sample 2 — technique: protein binding microarray; molecule type: double-stranded DNA, one strand shown; matrix: in vitro; concentration: not given; baseline: not given; reading: higher = stronger binding; measurement: E-score
Target: Histone acetyltransferase KAT6A, winged helix 1, GST fusion (KAT6A, Homo sapiens, UniProt Q92794, residues 1-85)
Setting: 8-mer, flanks averaged, mean of 2 arrays, mostly near background
Target sequence (chain): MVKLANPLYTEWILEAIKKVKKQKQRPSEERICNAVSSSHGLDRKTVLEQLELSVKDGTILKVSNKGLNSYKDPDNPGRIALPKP
CAGCACCG: 0.191
GATTAGAC: -0.0532
GAGTATAC: 0.0732
ACATAGAT: -0.0828
CATGCCCG: 0.302
AATTTGAC: -0.234
AAAATATA: 0.0214
ACAGCGCT: 0.301
CCCCTTTC: -0.0381
AGGGATTC: -0.118
ACTTAAAG: -0.147
CTGCGCAG: 0.0803
AAGGCCAA: -0.128
AACTCGTG: -0.134
AGCTAAGA: -0.211
CCGAGTCG: 0.132
ATACCTTC: -0.046
CCCCCCGG: 0.231
CCGCAGAG: 0.122
AGGTTGAC: -0.204

Sample 3 — technique: aptamer microarray, sandwich; molecule type: DNA with 2'F-ANA; matrix: in vitro; concentration: 200 nM; with: Cy3 exosite-II aptamer, 400 nM; reading: higher = stronger binding; measurement: mean fluorescence intensity; oligonucleotide: GGTTGGTGTGGTTGG
Target: Prothrombin, mature alpha-thrombin (F2, Homo sapiens, UniProt P00734)
Setting: whole 15-mer aptamer, many near background
2'F-ANA at 1 2 3 5 10 11 12 15: 63.7 a.u.
2'F-ANA at 1 2 3 5 6 15: 80.8 a.u.
2'F-ANA at 1 8 10 12 13 14 15: 48.1 a.u.
2'F-ANA at 1 3 5 6 7 9: 64 a.u.
2'F-ANA at 1 2 3 5 6 8 12 15: 108 a.u.
2'F-ANA at 2 13 14: 148 a.u.
2'F-ANA at 8 11 12 14: 278 a.u.
2'F-ANA at 3 4 6 7 8 11 12 14: 360 a.u.
2'F-ANA at 1 3 6 8 10 11: 83.9 a.u.
2'F-ANA at 3 5 9 10 11 12 13 15: 69.8 a.u.

Sample 4 — technique: EMSA with sequencing; molecule type: double-stranded DNA, one strand shown; matrix: in vitro; concentration: 10 and 20 nM; baseline: negative control set to 0; reading: higher = stronger binding; measurement: normalised bound fraction
Target: Hepatocyte nuclear factor 3-alpha (Foxa1, Mus musculus, UniProt P35582, residues 1-468, full length assumed)
Setting: whole designed probe, mean of two concentrations, ends assumed
GTGAGCGGTGCCCATTGATGGGGAACTCCTTTATCCCAACATGTTTATACAGACAAAACCAGGTTAAAATCGACACAAGGTCAACTTGAAATGGGGAAAGAGGAAGGTGACGTCACAAAATAAACATGAAGTCTTGTGTACAAGCATCTGCAGAAGAGTTCAGCCTCACCACTTGGGTAATGCTGTTGGAATGTGGTCTGGGTTCACTGTATTTGAATGTTTCACTGGGATCGTGGGGAC: 0.348 ratio
GTGAGCGGTGCCCATTGATGGGGAACATCTAGTTCCAGTCTTAGCATGGCAATTTCTTCCCGCAACATGCTGTTTTCACGCAAGAGATCTTCTTCTTTCTTATGACTAAGAGAAAGCTAAGTAATCTAAGGGAACTTTTAGTTAGCACTCAATAGAATGACATATCATGATTTCTTCTAAAATCAAAGAATGACATTTATATTTGTATAATGAAATAATTTTCACTGGGATCGTGGGGAC: 0.225 ratio
GTGAGCGGTGCCCATTGATGGGGAACCCTTTGGGTTATTCACCTAGATCCCTTAAGGTTTAAAATCAATTCTACAGGGACTTTTGAACTTAGACTTTCACTCCATATGTTAGGACTTATTATTTACATTATAGTTTGCTGTTAACTTAGCTGTTTATGTAGGTGTTCAAAGCTACATGAACGGCGAACTATAAGGTAAATAAGAAGCTTTCCCAAGACATTTCACTGGGATCGTGGGGAC: 0.411 ratio
GTGAGCGGTGCCCATTGATGGGGAACATCAAAGGATGACAAGTAACAGTAAATATGTAGTATTGATCCCAAATAGAAATATAGATGGATTTTTATCTTATGATGACATTTTAGTCTGAGTAAACAACAAAAAGTCACTGGGATGGGTGGCAGTGGTAAGAAGATGGCAGATGTCTATCTATTGATTGTATTCATATTCATATTTATATTCATTTATATGTTTCACTGGGATCGTGGGGAC: 0.428 ratio

Sample 5 — technique: RNA Bind-n-Seq; molecule type: RNA; matrix: in vitro; concentration: not given; baseline: input RNA pool; reading: higher = stronger binding; measurement: bound/input enrichment
Target: RING finger protein unkempt homolog, zinc fingers 1-6, GST-SBP tag (UNK, Homo sapiens, UniProt Q9C0B0, residues 30-357)
Setting: RNA with constant flanks, human and mouse sites, ends assumed
All sequences stand within: GGGAGUUCUACAGUCCGACGAUC … CAACAGAGGAUUGAGCAUCA
Residues (chain): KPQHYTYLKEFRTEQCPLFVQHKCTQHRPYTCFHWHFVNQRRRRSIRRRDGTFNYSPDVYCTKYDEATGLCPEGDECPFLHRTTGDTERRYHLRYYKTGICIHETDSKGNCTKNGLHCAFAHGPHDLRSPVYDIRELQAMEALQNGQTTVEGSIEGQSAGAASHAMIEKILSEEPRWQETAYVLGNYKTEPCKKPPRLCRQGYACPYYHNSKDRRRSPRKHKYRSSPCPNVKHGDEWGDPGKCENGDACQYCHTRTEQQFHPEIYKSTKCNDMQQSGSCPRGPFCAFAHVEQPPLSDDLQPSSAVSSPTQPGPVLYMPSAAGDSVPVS
CUGUAUUGACCAAAGCUUUCAGUUGUUCUUCAUUCUGUGCUCAGGAUUGAAAUGCUGCGUAGACGUUGUGUUGUUAGUGCUGGGCACGGAUUCUGGGACGGUGAGCUGUUGAUUUCCUAA: 0.0947 ratio
UCAGAAAGAAGCAACUUUGAAUCUGAACUUGAUAAUAAAAGAAGAAAUGAAAAACCCCAGUUGGAUUAGAAAGAACUGGCUUCUUGUGGCUGGGGUGACUUUCAUAGGCGUCCAUCUUGG: 0.223 ratio
GAGGACAAGAAAGAGCAGGAGUCUGAUGAGGAAGAGGAAGAAGAGGAAGAGGACGAGCCUUCAGGAGCCACCACAAGAUCCACCACCAGAUCAGAGGCUCAGAGAUCAAAGACACAGCUC: 0.473 ratio
GAGCCUACUCUGGUUAAGAUGUUCUUUUCCUCAAAGGUGCCCUAGUGCCAUGAUUUAAAUAUUUUUAUUACCAUUUUGAAAUGGAGAAGCCAUUCUGCAUAUGCCUUUGAAUUCCUGCCC: 2.23 ratio
CUAGCACAAGGAGACAUGAAACAGCUGGCUGAAGAUGUGAAGCUGCAGCUGUAUAAGUUACUAGAAAUUCCUGAUCCAGACAAAAACUGGGCUACUCUGGCGCAGAAAUUAGGUCUGGGG: 0.338 ratio
CCACAUUAGCACCCUGCCAGCCUACCAGCCUCUCUGUGCACAGCUUCUAAUGUUAUGAUCUAGCUAGAUUUUUAUUUAAAAUAUGAAAAACUGCUUUUCCCAAGACGUUUUUUAAAAGGA: 58.4 ratio

Sample 6 — technique: RNA Bind-n-Seq; molecule type: RNA; matrix: in vitro; concentration: 365 nM; baseline: no-protein control; reading: higher = stronger binding; measurement: RBNS enrichment (R)
Target: RNA binding protein fox-1 homolog 2, RRM domain, GST-SBP tag (RBFOX2, Homo sapiens, UniProt O43251-10, residues 100-194)
Setting: natural RNA segment, single round, ends assumed
Target sequence (chain): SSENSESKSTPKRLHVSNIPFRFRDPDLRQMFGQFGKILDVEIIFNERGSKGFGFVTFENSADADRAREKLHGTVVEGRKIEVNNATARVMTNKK
GGGAGUUCUACAGUCCGACGAUCAAAGGAAUGAAGGAACCUCCCUCCCUGAAAGCUUUUCCUGCUUCUGAGACUGUGUUCAGCCCUUUCCCCUAUAAAUUGAUAGGAACUGUGUGUCCACCUUUCCAAAGAAAUGGAAUUCUCGGGUGCCAA: 0.474
GGGAGUUCUACAGUCCGACGAUCCCUCAUCCUCCUACCCUGUACUCCCACCAAACCAUGGUCCUUUAAGGCACGCUCCUGUCCUCCUCAUUGCCCAGCAGUAGGGAGGGGCAGGGGUAAGGGGACCUGAGGAUUGGAAUUCUCGGGUGCCAA: 0.198
GGGAGUUCUACAGUCCGACGAUCGCCUAAAAGUUAGUUAAUAGUUACUUUGGUUUAACCUAUACACAAUGAUUAAGUGCAUUUAAUAUUGGUAAUUUAAUGAAAACCAUUCCUUGCCCAAUGGAUGUAUAAAUUGGAAUUCUCGGGUGCCAA: 0.523
GGGAGUUCUACAGUCCGACGAUCAGCUGACAGGCUGUUGCUGUGCCUGCUCACACCUGCUCCUGCAGGCACACUGGGCUAGGGACGAGGAAGGAGCAGCCACAAGUGGUAGAACUGCCUUGGUGGACACCAGCUGGAAUUCUCGGGUGCCAA: 0.392

Sample 7 — technique: protein-binding microarray; molecule type: hairpin DNA; matrix: in vitro; concentration: not given; baseline: not given; reading: higher = stronger binding; measurement: median fluorescence
Target: Hepatocyte nuclear factor 3-beta, forkhead domain (FOXA2, Homo sapiens, UniProt Q9Y261, residues 142-269)
Setting: whole hairpin DNA, median over replicate spots
Residues (chain): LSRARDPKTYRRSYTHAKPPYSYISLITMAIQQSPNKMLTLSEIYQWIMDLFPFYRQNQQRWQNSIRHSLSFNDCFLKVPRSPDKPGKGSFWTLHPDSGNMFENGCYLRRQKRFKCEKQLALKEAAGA
GAGGCCATGTAAACACGGCCTCCTGGCCGTGTTTACATGGCCTCACACTC (5mC at 16 28): 3540 a.u.
GAGGCCATGTAAACCGCGCCTCCTGGCGCGGTTTACATGGCCTCACACTC: 3290 a.u.
GAGGCCATGCAACCAACGCCTCCTGGCGTTGGTTGCATGGCCTCACACTC (5mC at 13): 3340 a.u.
GAGGCCATGTAAACATCGCCTCCTGGCGATGTTTACATGGCCTCACACTC: 4160 a.u.
GAGGCCATGCACGCAACGCCTCCTGGCGTTGCGTGCATGGCCTCACACTC (5mC at 12): 3330 a.u.
GAGGCCATGTAACCACCGCCTCCTGGCGGTGGTTACATGGCCTCACACTC: 3230 a.u.
GAGGCCATGTCGCCAACGCCTCCTGGCGTTGGCGACATGGCCTCACACTC (5mC at 11 33): 3230 a.u.
GAGGCCACGTAAACAACGCCTCCTGGCGTTGTTTACGTGGCCTCACACTC (5mC at 8): 3820 a.u.
GAGGCCCGGTAAACAACGCCTCCTGGCGTTGTTTACCGGGCCTCACACTC: 4190 a.u.
GAGGCCATGTAGACAACGCCTCCTGGCGTTGTCTACATGGCCTCACACTC: 3080 a.u.
GAGGCCATCTAAACAACGCCTCCTGGCGTTGTTTAGATGGCCTCACACTC (5mC at 9): 2990 a.u.
GAGGCCATGTAAACCGCGCCTCCTGGCGCGGTTTACATGGCCTCACACTC (5mC at 29): 3380 a.u.
GAGGCCATGTCAACAACGCCTCCTGGCGTTGTTGACATGGCCTCACACTC (5mC at 11): 3410 a.u.

A few entries again (sample 1):
CAACTTTA: 0.219
ACCTGCAA: -0.12
CTATAAAA: 0.297
AAGTGCCA: -0.0402
CCACGACG: -0.231
CGTGACAC: -0.0808
ACTCGGCA: -0.206
AAAAATCC: 0.195
AGGGCGGA: -0.251
ATTAGGGA: 0.157
GAGAGTTA: 0.185
CCTGCTCG: -0.245
GACAATCA: 0.0647
